Experimental data collected from several papers.
Protocols differ between the studies behind these lines. ± gives the spread as reported.
Organism: Pseudomonas aeruginosa

Molecule	assay	system	conditions	measurement	value
COCCSc1nnc(C23CC4CC(CC(C4)C2)C3)n1-c1ccccc1	–	IFO 3448	200 µg/disc, 24 h, 37 °C	inhibition zone diameter	< 10 mm
O=C(Nc1ccc(F)c(Cl)c1)c1ccccc1O	microbial growth, broth dilution	ATCC27853	–	MIC	> 64 µg/mL
Cc1ccc(C(C)C)cc1.Cc1ccc(C(C)C)cc1.[Cl][Ru][Cl].[Cl][Ru][Cl]	broth microdilution, agar subculture	ATCC 25619	–	MBC	> 1000 µg/mL
VQWRAIRVRVIR	biofilm formation	peptide, PAO1	24 h, 37 °C	MBIC	32 µg/mL
CC[C@H]1OC(=O)[C@H](C)[C@@H](O[C@H]2C[C@@](C)(OC)[C@@H](O)[C@H](C)O2)[C@H](C)[C@@H](O[C@@H]2O[C@H](C)C[C@H](N(C)C)[C@H]2O)[C@](C)(OC)C[C@@H](C)C(=O)[C@H](C)[C@@H](O)[C@]1(C)O	checkerboard	ATCC 27853	together with: magainin II	FIC index	1
CC[C@@H](C)[C@@H](NC(=O)[C@@H](C)NC(=O)[C@@H](CCCNC(=N)N)NC(=O)[C@@H](Cc1c[nH]c2ccccc12)NC(=O)[C@@H](CCC(N)=O)NC(=O)[C@H](N)C(C)C)C(=O)N[C@H](CCCNC(=N)N)C(=O)N[C@@H](C(=O)N[C@H](CCCNC(=N)N)C(=O)N[C@@H](C(=O)N[C@@H](C(=O)N[C@H](CCCNC(=N)N)C(N)=O)[C@H](C)CC)C(C)C)C(C)C	–	PAO1, Galleria mellonella larvae	proleg injection, 20 µg per larva, 48 h post infection, 37 °C, dosed 1 h after infection	survival	42 ± 7%
CC[C@H]1OC(=O)[C@H](C)[C@@H](O[C@H]2C[C@@](C)(OC)[C@@H](O)[C@H](C)O2)[C@H](C)[C@@H](O[C@@H]2O[C@H](C)C[C@H](N(C)C)[C@H]2O)[C@](C)(O)C[C@@H](C)CN(C)[C@H](C)[C@@H](O)[C@]1(C)O	–	hospitalized pneumonia patients, clinical isolates	Fine score 70 or more	susceptible isolates	0%
COc1cc(-c2oc3cc(O)cc(O)c3c(=O)c2O)ccc1O	microbial growth	ATCC15692 PAO1	11.1 µM	inhibition	> 50%
CC(C)(O/N=C(\C(=O)N[C@@H]1C(=O)N2C(C(=O)[O-])=C(C[n+]3ccccc3)CS[C@H]12)c1csc(N)n1)C(=O)O	checkerboard broth microdilution	clinical isolate 17-99	together with: magainin II	FIC index	0.25
COc1cc(/C=C2/SC(Nc3ccc(S(N)(=O)=O)cc3)=NC2=O)ccc1O	microbial growth	ATCC10145	50 µg/mL, 24 h	inhibition	27%
CCN1CCN(C(=O)N[C@@H](C(=O)N[C@@H]2C(=O)N3[C@@H]2SC(C)(C)[C@@H]3C(=O)O)c2ccccc2)C(=O)C1=O	checkerboard	ATCC 27853	together with: magainin II	FIC index	0.25
O=C(Nc1ccc(F)cc1[N+](=O)[O-])c1ccccc1O	microbial growth, broth dilution	ATCC27853	–	MIC	> 64 µg/mL
CO/N=C(\C(=O)N[C@@H]1C(=O)N2C(C(=O)O)=C(CSc3nc(=O)c(=O)[nH]n3C)CS[C@H]12)c1csc(N)n1	checkerboard	ATCC 27853	together with: magainin II	FIC index	0.25
CC(=O)N[C@@H](C)C(=O)N[C@@H](CCC(N)=O)C(=O)N[C@@H](CCCCN)C(=O)N[C@@H](CC(C)C)C(=O)N[C@@H](CC(C)C)C(=O)N[C@@H](CCCCN)C(=O)N[C@@H](CCCCN)C(=O)N[C@@H](Cc1ccccc1)C(=O)N[C@@H](CO)C(=O)N[C@@H](CC(C)C)C(=O)N[C@@H](CC(C)C)C(=O)N[C@@H](CCCCN)C(=O)N1CCC[C@H]1C(=O)N[C@@H](Cc1c[nH]c2ccccc12)C(=O)N[C@@H](C)C(=O)O	spermidine uptake	PA14	25 µM, 45 min pretreatment, 35 °C, together with: [14C]spermidine, 15 min	inhibition	66%
